Assay results gathered from unrelated publications.
Parts stem from different laboratories: compare values within a part only. Positions count from the first letter of the parent shown.

Set 1
Target: Histone acetyltransferase KAT6A, winged helix 2, GST fusion (KAT6A, Homo sapiens, UniProt Q92794, residues 85-181)
Technique: protein binding microarray
Molecule type: double-stranded DNA, one strand shown
Sample: in vitro
Tested at: not given
Notes: 8-mer, flanks averaged, mean of 2 arrays, mostly near background
Baseline: not given
Reading: higher = stronger binding
Target sequence (chain): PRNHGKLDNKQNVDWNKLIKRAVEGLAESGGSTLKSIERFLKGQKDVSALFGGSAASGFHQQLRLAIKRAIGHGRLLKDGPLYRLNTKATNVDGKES
| Strand | E-score |
| --- | --- |
| GATGTACC | -0.019 |
| GCTTTGAA | 0.128 |
| CCTCTGGA | 0.0767 |
| CGCTTGTA | 0.026 |
| CCGGCAAG | 0.1 |
| AAGCGTAT | -0.0745 |
| AATCCAGA | 0.0661 |
| AATCGACA | -0.0152 |
| AGAATGGA | 0.105 |
| CGGGACTA | 0.0662 |
| AATTGGGG | -0.0641 |
| ATGGCGTC | 0.0215 |
| CCTATGAC | -0.279 |
| ATGTGTAA | -0.17 |
| GAGATATA | -0.0025 |
| GCCGAGGC | 0.3 |
| CACTAAGG | -0.109 |
| GTTAGTAA | 0.0918 |
| CCCATTGA | -0.155 |
| CGAGACAC | -0.0644 |
| CAGGACAG | 0.142 |
| AAAAACGC | 0.175 |
| GGGACGAA | 0.244 |
| CCAGGGAG | 0.0245 |

Set 2
Target: CCND3, cyclin fold, Cln2 fusion (human)
Technique: yeast growth competition, sequencing
Sample: yeast
Notes: weak parent motif
Baseline: not given
Reading: higher = stronger binding
Parent: E2F7 docking peptide (human); SSAQRRLEIPSGG
| Variant | normalised enrichment score |
| --- | --- |
| R5A L7A | 0.047 |
| R5K I9F | -0.0932 |
| I9L | 0.0641 |
| G12A | 0.0287 |
| L7A | 0.134 |
| I9A | 0.112 |
| Q4A | 0.13 |
| I9F | 0.569 |
| R6A | -0.0414 |
| S1A | 0.163 |

Set 3
Target: TAR DNA-binding protein 43, full length, His tag (TARDBP, Homo sapiens, UniProt Q13148, residues 1-414)
Technique: RNA Bind-n-Seq
Molecule type: RNA
Sample: in vitro
Tested at: 20 nM
Notes: 6-mer, flanks averaged, single round
With: 150 mM LiCl
Baseline: input library
Reading: higher = stronger binding
| Strand | 6-mer enrichment (R) |
| --- | --- |
| GAUUCU | 0.848 |
| UCAGCA | 0.827 |
| UAAAAU | 0.946 |
| GAGAGG | 1.22 |
| CAGAUG | 0.892 |
| ACCACU | 0.905 |
| UAGGGU | 1.11 |
| GUGGGG | 1.64 |
| CAUUGG | 0.958 |
| GGCUAG | 1.03 |
| CGCAAA | 0.861 |
| CACUUG | 0.871 |
| CCGCGG | 0.967 |
| AUACAU | 0.859 |
| CUAACC | 0.851 |
| GACGAC | 0.834 |
| UACGUU | 0.936 |

Set 4
Target: Ras GTPase-activating protein-binding protein 1, C-terminal RGG region (G3BP1, Homo sapiens, UniProt Q13283)
Sequence of UniProt Q13283 (whole entry, looked up): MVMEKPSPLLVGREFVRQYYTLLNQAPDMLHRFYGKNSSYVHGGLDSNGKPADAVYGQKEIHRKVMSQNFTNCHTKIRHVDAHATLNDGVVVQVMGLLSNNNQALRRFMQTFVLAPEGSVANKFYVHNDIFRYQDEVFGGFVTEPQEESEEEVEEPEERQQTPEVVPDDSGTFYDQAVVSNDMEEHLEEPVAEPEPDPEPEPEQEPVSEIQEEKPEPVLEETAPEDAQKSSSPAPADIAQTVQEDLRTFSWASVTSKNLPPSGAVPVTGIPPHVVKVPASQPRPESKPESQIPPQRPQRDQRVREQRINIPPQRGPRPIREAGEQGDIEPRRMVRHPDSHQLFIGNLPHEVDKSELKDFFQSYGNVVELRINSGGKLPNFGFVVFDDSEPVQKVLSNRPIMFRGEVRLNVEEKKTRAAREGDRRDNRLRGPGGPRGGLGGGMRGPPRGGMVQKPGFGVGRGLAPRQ
Technique: RNA Bind-n-Seq
Molecule type: RNA
Sample: in vitro
Tested at: 1 µM
Notes: whole 134-nt RNA, ends assumed
With: 150 mM KCl
Baseline: input library
Reading: higher = stronger binding
Shared flanks, not repeated: GGGAGUUCUACAGUCCGACGAUC … UGGAAUUCUCGGGUGUCAAGG
| Strand | log2 enrichment |
| --- | --- |
| UCCUGUGCUACACAUCGUAUGUACCGAAUCGGGGUGGGGAAAAAAAGGGGAAAAAGGGGAAAGUAUUAUGUUACGCCGUUCGGAUCUGCA | 1.27 |
| UAACUUUAGAGGAGGAUCUGAUGGAUAUGGCAGUGGACGUGGAUUAGGGGAUGGCUAUAAUGGGUAUGGAGGAGGACCUGGAGGUGGCAA | -1.04 |
| ACCAUGCAGGUGGGCAUCUUUGGGAAGUGGGGCAAGGGGGGGAUAGGGAGGGGGGUAACACUUUGGGAACAGGUGGUCCCAGAAAGUUUC | -0.665 |
| UUUCCAGCAGUACCAGCUCCAGCCAGGAUCACCCUCUCUACUCUGGGCACCCAUCCCUUCCACUAAGUGGUGCUAUUGCUGCUUUUGCCU | 0.506 |
| UGGGAGGUGGAUUUUGUUUAUUUUUUUAGCUCAUUUCCAGGGGUGGGAAUUUUUUUUUAAUAUGUGUCAUGAAUAAAGUUGUUUUGGAAA | 2.47 |
| UCAAGUCCUGUGCUACACAUCGUAUGUACCGAAUCGGAAAGGUUUUUGGUUUGGAAAGUAUUAUGUUACGCCGUUCGGAUCUGCACUUCC | -1.47 |
| UCCUGUGCUACACAUCGUAUGUACCGAAUCAAAUUUUUUUAAAUUUUUAAAUUUUUAAAAAAGUAUUAUGUUACGCCGUUCGGAUCUGCA | -1.37 |
| UAACUUUAGAGGAGGAUCUGAUGGAUAUGGCAGUGGACGUGGAUAUGGGGAUGGCUAUAAUGGGUAUGGAGGAGGACCUGGAGGUGGCAA | -1.01 |
| AGUCCUGUGCUACACAUCGUAUGUACCGAAUCGGUUUUUGGUUUUUGGGUUUUUGGGGAAAGUAUUAUGUUACGCCGUUCGGAUCUGCAC | -1.38 |
| CACAGACAACACGCACCCACACAGACAGAGAGGGAAGGGGUUGGGAUGGGGACAGGGUGCACAGCAGGGCGGGGUAGGACCCCAGCCCCU | -0.0816 |

Set 5
Target: Prothrombin, mature alpha-thrombin (F2, Homo sapiens, UniProt P00734)
Technique: aptamer microarray, sandwich
Molecule type: DNA with 2'F-ANA
Sample: in vitro
Tested at: 200 nM
Notes: whole 15-mer aptamer, many near background
With: Cy3 exosite-II aptamer, 400 nM
Reading: higher = stronger binding
Strand: GGTTGGTGTGGTTGG
| Modification | mean fluorescence intensity [a.u.] |
| --- | --- |
| 2'F-ANA at 1 2 4 8 9 12 13 14 | 54.6 |
| 2'F-ANA at 9 10 | 188 |
| 2'F-ANA at 1 3 5 6 8 10 12 14 15 | 48.6 |
| 2'F-ANA at 1 2 5 6 7 8 11 | 53.4 |
| 2'F-ANA at 11 12 14 | 222 |
| 2'F-ANA at 2 3 4 5 7 8 9 11 12 15 | 155 |
| 2'F-ANA at 2 3 4 6 8 9 11 13 14 | 196 |
| 2'F-ANA at 2 3 4 5 7 8 9 10 11 | 57.4 |
| 2'F-ANA at 3 6 8 9 10 12 13 15 | 401 |
| 2'F-ANA at 3 6 7 8 9 10 12 13 14 15 | 399 |
| 2'F-ANA at 1 2 3 4 5 12 13 15 | 100 |
| 2'F-ANA at 2 4 8 11 12 13 15 | 381 |
| 2'F-ANA at 3 5 6 7 8 10 11 12 13 | 66.3 |
| 2'F-ANA at 2 7 8 10 11 12 15 | 173 |
| 2'F-ANA at 1 2 3 5 6 12 13 | 89.4 |
| 2'F-ANA at 1 3 4 6 7 8 10 12 13 15 | 70.9 |
| 2'F-ANA at 2 7 15 | 538 |
| 2'F-ANA at 2 5 6 7 8 9 10 11 12 14 | 46.8 |
| 2'F-ANA at 1 5 6 7 8 10 12 13 | 47.7 |
| 2'F-ANA at 4 6 8 12 13 14 | 101 |
| 2'F-ANA at 3 4 7 8 9 11 12 14 15 | 345 |
| 2'F-ANA at 2 6 8 13 14 | 128 |

Set 6
Target: Sal-like protein 4, full length isoform B (SALL4, Homo sapiens, UniProt Q9UJQ4-2, residues 1-616)
Technique: universal PBM
Molecule type: double-stranded DNA, one strand shown
Sample: in vitro
Tested at: not given
Notes: 8-mer, flanks averaged, mean of replicates
Reading: higher = stronger binding
Construct (chain): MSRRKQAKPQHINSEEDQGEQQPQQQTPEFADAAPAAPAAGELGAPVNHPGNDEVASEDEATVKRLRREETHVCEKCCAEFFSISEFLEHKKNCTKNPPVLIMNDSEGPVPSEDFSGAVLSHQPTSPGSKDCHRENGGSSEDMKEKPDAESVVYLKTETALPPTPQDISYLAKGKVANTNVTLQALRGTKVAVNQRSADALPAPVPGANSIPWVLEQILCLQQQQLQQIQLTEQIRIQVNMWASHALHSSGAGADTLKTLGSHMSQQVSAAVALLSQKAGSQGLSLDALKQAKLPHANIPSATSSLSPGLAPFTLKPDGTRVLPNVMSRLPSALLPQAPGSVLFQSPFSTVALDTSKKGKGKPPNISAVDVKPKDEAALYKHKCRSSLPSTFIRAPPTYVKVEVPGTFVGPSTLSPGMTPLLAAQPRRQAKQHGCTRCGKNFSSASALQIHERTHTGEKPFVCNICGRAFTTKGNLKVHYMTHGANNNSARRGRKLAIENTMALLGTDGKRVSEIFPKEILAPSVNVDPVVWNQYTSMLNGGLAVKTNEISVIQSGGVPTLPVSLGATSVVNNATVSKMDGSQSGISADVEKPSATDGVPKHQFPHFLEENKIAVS
| Strand | E-score |
| --- | --- |
| AGAAGGCC | -0.12 |
| ACCATTCC | 0.0127 |
| TAGAAAGA | -0.0655 |
| CCTGAAGG | -0.149 |
| GAGCACCC | -0.312 |
| CGCGGCGA | -0.321 |
| CTTACCAC | -0.0408 |
| CGAGGTGC | -0.121 |
| AGAGGTCA | -0.201 |
| CTGGTAAC | -0.127 |
| CCATCATA | 0.225 |
| ACTCCTGG | -0.312 |
| CACAGGCA | -0.2 |
| AACTGATT | 0.0952 |
| CGAATTGC | -0.0669 |
| AGCACTGA | -0.0382 |
| ATGCCGAG | -0.0977 |

Some of these lines once more (set 1):
| Strand | E-score |
| --- | --- |
| CGCTTGTA | 0.026 |
| CCGGCAAG | 0.1 |
| AAGCGTAT | -0.0745 |
| AATCCAGA | 0.0661 |
| AATCGACA | -0.0152 |
| AGAATGGA | 0.105 |
| CGGGACTA | 0.0662 |
| AATTGGGG | -0.0641 |
| ATGGCGTC | 0.0215 |
